Experimental data of several laboratories.
Each numbered part is a random draw from the data of one study; scales do not carry over between parts. Changes are numbered by the printed parent chain.

Block 1
Target: Centromere-binding protein 1, full length, His-tagged (CBF1, Saccharomyces cerevisiae, UniProt P17106, residues 1-351)
UniProt P17106, sequence (whole entry, looked up): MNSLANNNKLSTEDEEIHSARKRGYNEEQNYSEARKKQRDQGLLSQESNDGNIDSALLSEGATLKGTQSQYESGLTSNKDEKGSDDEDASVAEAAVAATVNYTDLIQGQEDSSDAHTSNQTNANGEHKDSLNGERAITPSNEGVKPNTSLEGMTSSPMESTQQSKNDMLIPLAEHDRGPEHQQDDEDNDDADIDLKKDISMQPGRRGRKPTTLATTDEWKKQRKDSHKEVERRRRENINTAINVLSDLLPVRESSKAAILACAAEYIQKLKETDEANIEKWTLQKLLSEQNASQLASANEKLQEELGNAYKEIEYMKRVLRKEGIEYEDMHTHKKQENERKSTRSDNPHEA
Method: competition protein-binding microarray
Molecule type: double-stranded DNA, one strand shown
Sample: in vitro
Concentration: 2 µM
Notes: whole 60-bp probe, lowest competitor level
Added: Pho4 competitor, 0.05 µM
Direction: higher = stronger binding
The fluorescence intensity of `GCAGACGACTAAAGCCATGGTCAAGCCTGGTAATCCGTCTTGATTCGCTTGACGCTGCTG` is reported as 56.5 a.u.
With `GTTGATTTGAACAGAAGCGTGGTGAACGGCTTTGATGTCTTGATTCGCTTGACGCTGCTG` the fluorescence intensity was 78.6 a.u.
`TTTCAAGCGTCCGAACGCGTGAGGATATATGCAAGCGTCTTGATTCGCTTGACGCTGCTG` gave a fluorescence intensity of 90.2 a.u.
`TGTGTTCTAGGCTTGAACGTGCCAGCAGCATATCGAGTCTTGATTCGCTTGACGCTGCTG` gave a fluorescence intensity of 76.4 a.u.
The fluorescence intensity of `CAGTTCTACTGGTTCGACGTGCTTTACACCCGCAACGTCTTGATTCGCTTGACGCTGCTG` is reported as 64.4 a.u.
`CGATGTTCTTAATTACACGTGAATTATCAAAAACCAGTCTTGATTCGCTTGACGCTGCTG` has a fluorescence intensity of 1190 a.u.
For `TGCGCAACAACTTTTCACGTGCCCTTATGTCTAGAAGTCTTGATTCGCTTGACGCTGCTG`, the fluorescence intensity was 1890 a.u.
The fluorescence intensity of `TTCCCGGGAGGGGTGGGCGTGCGATTGGAATTAGTCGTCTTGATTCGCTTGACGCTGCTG` is reported as 133 a.u.

Block 2
Target: Histone acetyltransferase KAT6A, both winged helices, GST fusion (KAT6A, Homo sapiens, UniProt Q92794, residues 1-181)
Method: protein binding microarray
Molecule type: double-stranded DNA, one strand shown
Sample: in vitro
Concentration: not given
Notes: 8-mer, flanks averaged, mean of 2 arrays, mostly near background
Reference: not given
Direction: higher = stronger binding
Construct (chain): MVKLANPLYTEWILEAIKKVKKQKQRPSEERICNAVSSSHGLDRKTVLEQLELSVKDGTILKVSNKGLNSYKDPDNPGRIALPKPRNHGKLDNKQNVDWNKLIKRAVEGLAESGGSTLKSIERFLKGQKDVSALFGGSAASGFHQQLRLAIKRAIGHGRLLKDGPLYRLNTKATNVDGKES
`GTGAACGA` gave an E-score of -0.094.
`ACTAACCA` has an E-score of -0.114.
The E-score of `TAGGCAAA` is reported as -0.222.
For `CGCGTCTC`, the E-score was 0.278.
`ATCTGTTG` has an E-score of -0.232.
`CGCGCAAA` has an E-score of 0.231.
For `AGCGGGTG`, the E-score was 0.177.
For `ATCTAGGC`, the E-score was -0.0711.

Block 3
Target: ATF3, bZIP domain (human)
Method: DHFR protein complementation
Sample: yeast
Notes: single substitutions, most at no-binding floor
Reference: wild-type JUN-FOS pair
Direction: higher = stronger binding
Parent: JUN, bZIP domain (human); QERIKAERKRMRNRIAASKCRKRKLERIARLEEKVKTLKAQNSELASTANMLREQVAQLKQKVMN; partner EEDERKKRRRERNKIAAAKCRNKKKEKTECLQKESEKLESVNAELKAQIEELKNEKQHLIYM
With `E33M` the binding fitness was -0.238 natural log.
For `L59W`, the binding fitness was -0.813 natural log.
For `L31S`, the binding fitness was -0.781 natural log.
With `A29S` the binding fitness was -0.174 natural log.
With `L59H` the binding fitness was -1.37 natural log.
`E32I` has a binding fitness of -0.434 natural log.
`S47R` has a binding fitness of -0.0235 natural log.
`L45M` has a binding fitness of -0.44 natural log.

Mixed results
Parent: PafA, mature enzyme, eGFP fusion (Elizabethkingia meningoseptica, UniProt Q9KJX5); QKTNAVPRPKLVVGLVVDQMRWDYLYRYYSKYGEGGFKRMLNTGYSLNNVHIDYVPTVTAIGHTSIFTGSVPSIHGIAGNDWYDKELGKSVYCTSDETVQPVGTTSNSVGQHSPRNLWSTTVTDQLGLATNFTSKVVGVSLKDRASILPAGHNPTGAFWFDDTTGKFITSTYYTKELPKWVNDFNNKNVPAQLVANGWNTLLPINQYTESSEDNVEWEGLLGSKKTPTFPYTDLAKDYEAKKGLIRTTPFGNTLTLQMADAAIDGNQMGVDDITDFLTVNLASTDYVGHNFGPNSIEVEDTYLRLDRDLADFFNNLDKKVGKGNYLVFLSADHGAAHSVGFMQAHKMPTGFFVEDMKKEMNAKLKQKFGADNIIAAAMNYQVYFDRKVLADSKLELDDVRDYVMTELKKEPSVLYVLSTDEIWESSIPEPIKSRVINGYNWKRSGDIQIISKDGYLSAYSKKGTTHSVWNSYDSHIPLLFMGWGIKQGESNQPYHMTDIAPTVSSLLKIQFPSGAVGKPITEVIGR
`A335G` — result for “oxyanion analog dissociation constant”: 598 nM (vanadate, free oxyanion; microfluidic competitive inhibition; in vitro, cell-free expressed; not given, derived from inhibition constants, unchanged parent 676 nM; lower = stronger binding).

Some of these lines once more (block 3):
With `L59H` the binding fitness was -1.37 natural log.
For `L31S`, the binding fitness was -0.781 natural log.
`L45M` has a binding fitness of -0.44 natural log.
For `L59W`, the binding fitness was -0.813 natural log.
